Assay results pooled from the literature.
Parts stem from different laboratories: compare values within a part only. Positions count from the first letter of the parent shown.

Sample 1
Target: CCND3, cyclin fold, Cln2 fusion (human)
Method: yeast growth competition, sequencing
Sample: yeast
Setting: weak parent motif
Reference: not given
Direction: higher = stronger binding
Parent: PKMYT1 docking peptide (human); SFEPRNLLSLFED
Substitution	normalised enrichment score
SFEPRNLLSLAED [F11A]	0.137
SFMPRNLLSLFED [E3M]	0.165
SFEPRMLLSLFED [N6M]	-0.0583
SFEPRNMLSLFED [L7M]	0.0698
SFEPRNHLSLFED [L7H]	0.0769
SFEPRNLLNLFED [S9N]	0.138
RFEPRNLLSLFED [S1R]	0.0437
SFEPQNLLSLFED [R5Q]	0.0751
SYEPRNLLSLFED [F2Y]	0.034
SFEPRNLLSLFEV [D13V]	0.0551
SFEPRNLLSLFEP [D13P]	0.154
SKEPRNLLSLFED [F2K]	-0.0226
SFEPRNLDSLFED [L8D]	0.0297
SFEPRRLLSLFED [N6R]	0.108
SFEPRNLLSLLED [F11L]	-0.0638
MFEPRNLLSLFED [S1M]	0.168
SNEPRNLLSLFED [F2N]	0.0626
SFEPRNLTSLFED [L8T]	0.0995
WFEPRNLLSLFED [S1W]	0.136
SFIPRNLLSLFED [E3I]	0.0162
SFEYRNLLSLFED [P4Y]	0.0321
GFEPRNLLSLFED [S1G]	0.101
SFEPRNLLSLFEC [D13C]	0.0869
PFEPRNLLSLFED [S1P]	0.0519
SFEKRNLLSLFED [P4K]	0.0947

Sample 2
Target: ABI1, truncated, D143A, DHFR fusion (Arabidopsis thaliana)
Method: DHFR PCA, deep sequencing
Sample: yeast
Setting: methotrexate growth selection, single substitutions
Together with: (+)-ABA 0.11 µM
Reference: wild-type fitted maximum
Direction: higher = stronger binding
Parent: PYL1, truncated, DHFR fusion (Arabidopsis thaliana); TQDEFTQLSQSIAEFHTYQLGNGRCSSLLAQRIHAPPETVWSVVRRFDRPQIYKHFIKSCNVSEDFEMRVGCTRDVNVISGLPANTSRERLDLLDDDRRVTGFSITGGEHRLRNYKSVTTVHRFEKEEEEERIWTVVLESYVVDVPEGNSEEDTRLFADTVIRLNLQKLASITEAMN; partner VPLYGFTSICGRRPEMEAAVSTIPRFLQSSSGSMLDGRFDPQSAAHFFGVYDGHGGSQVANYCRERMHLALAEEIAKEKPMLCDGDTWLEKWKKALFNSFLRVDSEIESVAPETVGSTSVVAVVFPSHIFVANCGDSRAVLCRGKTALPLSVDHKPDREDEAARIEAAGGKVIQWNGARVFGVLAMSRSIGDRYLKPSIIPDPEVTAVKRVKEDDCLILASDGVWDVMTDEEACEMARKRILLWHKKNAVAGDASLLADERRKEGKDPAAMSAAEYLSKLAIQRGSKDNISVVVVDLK
Substitution	relative binding score [%]
Q19L	4.52
L93P	6.4
F157I	0.105
A175N	26
A13G	9.85
E151L	23.4
N165W	4.59
N149R	22.4
G102S	10.2
E14F	-0.8
T160F	55.4
V78R	36.3
E129T	34.2
Q51I	-22.1
F15N	-0.734
R69F	1.25
K54G	-6.68
T120V	-5.57
D153S	-0.335
I52R	12.6
E64L	7.37
G23Y	1.44
A30V	19.7
S26M	6.12
E127F	24.3

Sample 3
Target: OGT, full length, His-tagged (human)
Method: phage display, sequencing
Sample: in vitro
Tested at: 1 µg OGT
Setting: single substitutions, 15-mer displayed peptide, unchanged parent 6.14
Reference: input library
Direction: higher = stronger binding
Parent: peptide; VAYPNSYMPKYQIST
Substitution	fold enrichment [fold]
VAYPNSYMPKYQINT [S14N]	6.79
VRYPNSYMPKYQIST [A2R]	2.6
VAYPNSYMPNYQIST [K10N]	0.509
VATPNSYMPKYQIST [Y3T]	5.49
VAYPNSRMPKYQIST [Y7R]	0.936
VAYPKSYMPKYQIST [N5K]	3.18
VAYPASYMPKYQIST [N5A]	5.4
VAYPNSWMPKYQIST [Y7W]	0.789
VAYPNSYMPFYQIST [K10F]	5.28
VAWPNSYMPKYQIST [Y3W]	8.79
VFYPNSYMPKYQIST [A2F]	1.45
VAYPNSYMQKYQIST [P9Q]	0.858
VAYPNYYMPKYQIST [S6Y]	3.84
VAYPNSYMPVYQIST [K10V]	3.47
HAYPNSYMPKYQIST [V1H]	9.38
VAYPNSYMPDYQIST [K10D]	0.689
VAYPHSYMPKYQIST [N5H]	5.69
VAYPNFYMPKYQIST [S6F]	6.38
VAYPNSYMPKYQIET [S14E]	8.43

Sample 4
Target: Sal-like protein 4, full length isoform B (SALL4, Homo sapiens, UniProt Q9UJQ4-2, residues 1-616)
Method: universal PBM
Form: double-stranded DNA, one strand shown
Sample: in vitro
Tested at: not given
Setting: 8-mer, flanks averaged, mean of replicates
Direction: higher = stronger binding
Target sequence (chain): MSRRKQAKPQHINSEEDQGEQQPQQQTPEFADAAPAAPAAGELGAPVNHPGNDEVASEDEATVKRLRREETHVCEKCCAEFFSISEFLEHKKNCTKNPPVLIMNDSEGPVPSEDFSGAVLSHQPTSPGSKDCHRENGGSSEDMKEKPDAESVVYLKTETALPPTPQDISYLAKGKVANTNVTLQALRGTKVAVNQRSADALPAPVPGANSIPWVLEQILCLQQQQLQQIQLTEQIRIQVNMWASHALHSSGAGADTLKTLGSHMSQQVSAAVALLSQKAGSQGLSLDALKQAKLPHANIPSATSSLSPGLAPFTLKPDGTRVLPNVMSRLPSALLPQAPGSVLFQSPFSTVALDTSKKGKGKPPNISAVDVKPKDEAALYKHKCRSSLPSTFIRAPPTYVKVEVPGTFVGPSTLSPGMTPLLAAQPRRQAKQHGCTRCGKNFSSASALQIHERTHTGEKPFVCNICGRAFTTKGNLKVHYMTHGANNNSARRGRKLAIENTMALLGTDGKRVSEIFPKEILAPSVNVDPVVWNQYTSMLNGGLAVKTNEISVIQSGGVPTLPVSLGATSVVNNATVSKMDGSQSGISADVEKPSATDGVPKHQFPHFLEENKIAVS
Strand	E-score
CCACGCAG	-0.0949
CTCTGTAA	0.0336
AGCGTGAA	0.0324
AAAATGCG	0.0866
AGTAGGTC	-0.158
GCTTTTAA	0.0849
CCATGCGA	-0.0762
AGCTCCCT	-0.191
CGGGAGTC	-0.211
ATCCCTAC	0.0556
GATGCTAA	-0.0491
TCGCCAAA	-0.0448
CAACAATG	0.0413
GGGGTTAC	-0.31
CAATACTC	0.143
ACTGACGC	-0.196
AATGTACC	0.155
TGGCCCAA	-0.24
GTCGCAAA	0.0295
CAAAGGGG	-0.126
GACTATCC	-0.237
GCAGCCGA	-0.271
ATAACTCC	0.273
GTTCAAAA	-0.0157
GCCTGTCC	-0.204

Sample 5
Target: RNA binding protein fox-1 homolog 2, RRM domain, GST-SBP tag (RBFOX2, Homo sapiens, UniProt O43251-10, residues 100-194)
Method: RNA Bind-n-Seq
Form: RNA
Sample: in vitro
Tested at: 365 nM
Setting: natural RNA segment, single round, ends assumed
Reference: no-protein control
Direction: higher = stronger binding
Shared flanks, not repeated: GGGAGUUCUACAGUCCGACGAUC … UGGAAUUCUCGGGUGCCAA
Construct (chain): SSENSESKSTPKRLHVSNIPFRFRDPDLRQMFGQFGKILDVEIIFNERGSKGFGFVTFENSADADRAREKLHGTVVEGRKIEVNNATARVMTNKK
Strand	RBNS enrichment (R)
AAGAUGAUUUCAGUUCAUCAAAUCAUCAUUAAUGACUUUAUGUAUUAUUUGCACAGGGAGAAUUGAAACUGAGUAUAAUCAAUAAGCUAGAUACGAAAUCAGUUUCUCAA	0.991
GGUUUUGCUUUUAGUCUCCCCUUCCUUCUGCCUUGGGGGCGGUACUCUGUGGAGCUGCUUAGGCCUGGAAAGGUACAGUAUGUAGAAGAGGACUGUGAGACGUGAGUUAG	0.362
GUGCUGGAAGCUGUUUGCACCUUUGUCAGGACACUGCGUUUCAGAAGCCACUGUUCCCUCUGGUGGCUUUUACAUGUCGGUGGCUGGCAUACCAUAUAGUAACAGCAGUA	0.329
UUCUUUCUUGUGGUGGGGCUCAGACACCAGCAACAGCCUCUUGGGAUGCCCCAAGUUGUUUCCGGUUCUUUCUAGCUGUCCUUUUUAAAGUGUGUGCUCUUCCUUCCUUA	0.341
CACAGCCCAGUGGGUCCUUGUUCAGUUCUUGUCCAGGCCUUUGGGUGAGGGACACUGGUAGGGAUCAAGGCUCAUGGGCUCUGAGCCAAAGAAGGAGGCAUGGUGCAGAC	0.978
ACUGUUAGACUCUUUUCCACUUUCAACAAACUUGCAUGUCAGUUUCUGUCAUGUUUAUUUAUUGGAUUCUCUGCUGCCUGAUCUGUACAUACAUGAUCCCUCGGGUUUUG	0.354
GGUUGGGCCCAGGUGCUGCUCAGCCAGGAAACGAGAGCAAACACUCCAGGGCCUUUGCAAGCCCAUCGCCCUCCUCACUGGAGACACCCAGACCUGCCUUCCUCCACCAA	0.367
AGACUGACAGCCAGCCUGGCUCAUUCUCAUUAUUGGCUAGUUAGCUUUCUUUAUCAACCUGCUCACUCACAAAUGUGUGCCCUCAGCCAGAGAGUAAGAAAGCCCAAAUC	0.201
GAAGCAGUUGCUCCACUGGAAUUUCUAUAAAGCUGGGUAAAGGGUUAGCAGAAUUACAGAUCUUAAGUACUAACUGCAGUCCAAGAUGGAAGAGUACUCAGCAGCCACUG	0.593
UGGAGGUACUUCUCGCCAUCAGCUUCCUUCUUUACAAAACCAUCAUUUCAACAUGAAAAUUAUGUCAGUUUAUAGAAAUAUUUAUUGUUCAAGGUCUGUAAUUGUAUUUC	0.421
AAGCAUGCUUCUCCUGAAAUUUAACUACAUUAGUAGUUGACAUUUGUAUACAUAUAUCCUAAUACAAGAGUAGGAUAAGGUGGAAAUGUAAUGGCCUGAGGGAUGGUGAA	7.94
UUGACGUCACUCUCUCUCGACCUCCAAACAGCAGGACUCUUUCUCUGGGAAACCAUCCUUCCAAAACGGAAUCUAUGUAGACAAUGGGACGUUAGGCAGAGAGCUCAGAU	0.31

Repeated from above (sample 4):
Strand	E-score
CCACGCAG	-0.0949
CTCTGTAA	0.0336
AGCGTGAA	0.0324
AAAATGCG	0.0866
AGTAGGTC	-0.158
GCTTTTAA	0.0849
CCATGCGA	-0.0762
AGCTCCCT	-0.191
CGGGAGTC	-0.211
ATCCCTAC	0.0556
GATGCTAA	-0.0491
TCGCCAAA	-0.0448
CAACAATG	0.0413
GGGGTTAC	-0.31
CAATACTC	0.143
